Published values collected from several papers.
Protocols differ between the studies behind these lines. “And” joins repeats or separate records; there may be more than shown. ± gives the spread as reported.
Proteasome component C5/PSMB5 chymotrypsin-like site: Proteasome component C5/PSMB5, chymotrypsin-like site (Homo sapiens, UniProt P20618+P28074)
Chain of UniProt P28074 (whole entry, looked up): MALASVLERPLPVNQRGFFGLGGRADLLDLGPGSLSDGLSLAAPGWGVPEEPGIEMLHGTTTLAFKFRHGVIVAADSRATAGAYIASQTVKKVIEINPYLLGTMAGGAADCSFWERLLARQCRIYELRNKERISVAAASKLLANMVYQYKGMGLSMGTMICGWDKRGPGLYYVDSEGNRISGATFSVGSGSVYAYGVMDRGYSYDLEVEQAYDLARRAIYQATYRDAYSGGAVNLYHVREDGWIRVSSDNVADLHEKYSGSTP
Chain of UniProt P20618 (whole entry, looked up): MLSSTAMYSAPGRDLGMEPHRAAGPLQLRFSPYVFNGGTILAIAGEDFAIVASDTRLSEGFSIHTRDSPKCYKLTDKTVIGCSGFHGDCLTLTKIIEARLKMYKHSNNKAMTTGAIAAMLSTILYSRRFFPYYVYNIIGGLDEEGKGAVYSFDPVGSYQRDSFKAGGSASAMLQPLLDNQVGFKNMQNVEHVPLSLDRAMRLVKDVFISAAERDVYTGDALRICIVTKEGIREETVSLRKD
Genome polyprotein protease: Genome polyprotein, protease (dengue virus type 2, UniProt P29990)
topA: DNA topoisomerase 1 (topA, Escherichia coli, UniProt P06612)
Chain of UniProt P06612 (whole entry, looked up): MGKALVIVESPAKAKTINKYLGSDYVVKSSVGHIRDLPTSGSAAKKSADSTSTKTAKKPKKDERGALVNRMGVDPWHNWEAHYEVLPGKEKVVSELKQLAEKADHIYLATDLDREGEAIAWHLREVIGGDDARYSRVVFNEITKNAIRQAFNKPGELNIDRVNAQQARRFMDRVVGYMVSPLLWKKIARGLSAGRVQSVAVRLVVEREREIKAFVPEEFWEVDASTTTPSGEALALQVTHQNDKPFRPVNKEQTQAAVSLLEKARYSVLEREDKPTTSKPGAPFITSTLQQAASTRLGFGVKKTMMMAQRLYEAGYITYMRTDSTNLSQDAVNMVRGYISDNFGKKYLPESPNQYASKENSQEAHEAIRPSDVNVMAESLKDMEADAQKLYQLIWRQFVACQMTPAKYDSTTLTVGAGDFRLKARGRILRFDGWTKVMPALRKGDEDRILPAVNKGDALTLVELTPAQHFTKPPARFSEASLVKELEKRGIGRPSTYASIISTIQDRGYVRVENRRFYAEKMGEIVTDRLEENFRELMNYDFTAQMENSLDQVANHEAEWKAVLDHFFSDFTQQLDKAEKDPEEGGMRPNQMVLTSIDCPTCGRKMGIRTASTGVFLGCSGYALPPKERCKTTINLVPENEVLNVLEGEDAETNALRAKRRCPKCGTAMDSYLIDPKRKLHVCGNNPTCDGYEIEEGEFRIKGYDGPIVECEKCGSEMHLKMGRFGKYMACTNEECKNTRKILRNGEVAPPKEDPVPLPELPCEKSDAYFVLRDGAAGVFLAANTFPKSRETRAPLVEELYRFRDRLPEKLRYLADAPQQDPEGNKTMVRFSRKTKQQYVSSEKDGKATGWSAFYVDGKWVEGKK
PSMB5: Proteasome Macropain subunit MB1 (PSMB5, Homo sapiens, UniProt P28074)
Genome polyprotein NS2B-NS3 protease: Genome polyprotein, NS2B-NS3 protease (ZIKV, UniProt A0A024B7W1)
ALPL: Alkaline phosphatase, tissue-nonspecific isozyme (ALPL, Homo sapiens, UniProt P05186)
Chain of UniProt P05186 (whole entry, looked up): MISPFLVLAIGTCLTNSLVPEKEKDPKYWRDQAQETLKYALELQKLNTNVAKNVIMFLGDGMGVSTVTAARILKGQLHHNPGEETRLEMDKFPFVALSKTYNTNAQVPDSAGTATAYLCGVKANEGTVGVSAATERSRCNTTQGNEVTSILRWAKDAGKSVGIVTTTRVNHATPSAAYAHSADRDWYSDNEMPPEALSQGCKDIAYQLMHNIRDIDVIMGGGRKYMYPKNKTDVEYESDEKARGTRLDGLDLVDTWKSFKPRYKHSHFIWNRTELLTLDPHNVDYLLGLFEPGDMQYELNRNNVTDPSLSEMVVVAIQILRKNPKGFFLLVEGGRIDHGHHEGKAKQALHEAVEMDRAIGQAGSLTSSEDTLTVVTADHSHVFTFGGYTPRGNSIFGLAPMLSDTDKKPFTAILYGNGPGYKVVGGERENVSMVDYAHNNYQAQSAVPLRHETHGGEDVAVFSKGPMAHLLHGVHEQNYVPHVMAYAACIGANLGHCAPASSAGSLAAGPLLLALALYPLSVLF
Chain of UniProt Q13224 (whole entry, looked up): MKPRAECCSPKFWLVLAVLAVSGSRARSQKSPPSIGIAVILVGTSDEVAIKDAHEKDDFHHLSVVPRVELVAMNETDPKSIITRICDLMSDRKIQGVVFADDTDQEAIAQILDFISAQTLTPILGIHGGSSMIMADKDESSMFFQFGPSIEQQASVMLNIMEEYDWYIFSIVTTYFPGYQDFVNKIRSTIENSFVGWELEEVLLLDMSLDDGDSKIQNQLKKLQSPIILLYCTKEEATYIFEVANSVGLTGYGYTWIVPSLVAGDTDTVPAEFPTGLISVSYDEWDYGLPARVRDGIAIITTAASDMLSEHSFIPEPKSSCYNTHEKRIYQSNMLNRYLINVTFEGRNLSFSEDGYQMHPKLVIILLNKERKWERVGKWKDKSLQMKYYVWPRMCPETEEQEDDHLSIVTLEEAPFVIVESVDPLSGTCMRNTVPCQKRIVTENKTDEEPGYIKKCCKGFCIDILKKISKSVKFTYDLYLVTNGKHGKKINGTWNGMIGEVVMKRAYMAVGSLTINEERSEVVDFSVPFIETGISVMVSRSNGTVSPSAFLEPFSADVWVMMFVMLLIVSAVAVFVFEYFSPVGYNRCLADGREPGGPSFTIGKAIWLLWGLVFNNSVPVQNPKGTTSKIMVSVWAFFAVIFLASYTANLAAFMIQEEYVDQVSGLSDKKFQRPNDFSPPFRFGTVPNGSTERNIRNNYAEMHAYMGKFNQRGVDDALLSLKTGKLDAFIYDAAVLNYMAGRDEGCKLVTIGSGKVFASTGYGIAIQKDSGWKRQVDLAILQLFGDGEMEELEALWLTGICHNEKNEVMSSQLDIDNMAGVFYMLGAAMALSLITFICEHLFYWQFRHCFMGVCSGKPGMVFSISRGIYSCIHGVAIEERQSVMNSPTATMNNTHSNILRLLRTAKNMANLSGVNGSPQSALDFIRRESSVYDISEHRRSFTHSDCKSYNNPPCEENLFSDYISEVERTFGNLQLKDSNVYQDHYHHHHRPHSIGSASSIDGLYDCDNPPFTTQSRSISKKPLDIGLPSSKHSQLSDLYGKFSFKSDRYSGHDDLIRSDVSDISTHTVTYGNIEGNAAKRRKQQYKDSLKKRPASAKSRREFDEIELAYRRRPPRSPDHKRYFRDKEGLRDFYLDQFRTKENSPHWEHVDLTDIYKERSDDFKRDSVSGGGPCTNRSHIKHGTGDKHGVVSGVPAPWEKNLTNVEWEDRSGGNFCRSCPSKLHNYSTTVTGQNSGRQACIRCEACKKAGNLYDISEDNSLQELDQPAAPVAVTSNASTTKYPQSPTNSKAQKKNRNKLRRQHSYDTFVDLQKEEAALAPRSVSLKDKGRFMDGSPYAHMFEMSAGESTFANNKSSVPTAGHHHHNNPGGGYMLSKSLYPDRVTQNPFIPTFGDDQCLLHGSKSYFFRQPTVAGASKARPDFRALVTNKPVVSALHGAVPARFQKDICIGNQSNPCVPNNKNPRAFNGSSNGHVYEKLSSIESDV
Chain of UniProt Q9Y253 (whole entry, looked up): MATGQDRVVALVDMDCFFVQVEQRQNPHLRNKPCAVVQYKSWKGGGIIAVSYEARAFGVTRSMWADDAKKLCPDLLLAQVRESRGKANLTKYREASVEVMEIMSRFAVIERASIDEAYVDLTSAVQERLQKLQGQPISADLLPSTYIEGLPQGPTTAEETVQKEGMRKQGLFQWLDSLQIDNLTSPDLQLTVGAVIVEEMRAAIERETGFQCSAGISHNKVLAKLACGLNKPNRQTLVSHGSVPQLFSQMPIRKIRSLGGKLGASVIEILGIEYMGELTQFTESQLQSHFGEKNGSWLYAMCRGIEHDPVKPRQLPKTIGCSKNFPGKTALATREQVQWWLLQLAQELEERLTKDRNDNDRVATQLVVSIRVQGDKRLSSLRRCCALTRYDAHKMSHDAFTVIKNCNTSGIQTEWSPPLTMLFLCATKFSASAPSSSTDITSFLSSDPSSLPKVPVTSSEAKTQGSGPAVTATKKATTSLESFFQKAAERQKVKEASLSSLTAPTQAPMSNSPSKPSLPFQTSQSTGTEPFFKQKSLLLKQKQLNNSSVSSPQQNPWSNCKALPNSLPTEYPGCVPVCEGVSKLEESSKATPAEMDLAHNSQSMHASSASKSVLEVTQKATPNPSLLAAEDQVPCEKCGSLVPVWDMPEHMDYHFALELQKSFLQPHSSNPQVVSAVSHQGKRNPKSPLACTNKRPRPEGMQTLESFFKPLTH
Chain of UniProt P37136 (whole entry, looked up): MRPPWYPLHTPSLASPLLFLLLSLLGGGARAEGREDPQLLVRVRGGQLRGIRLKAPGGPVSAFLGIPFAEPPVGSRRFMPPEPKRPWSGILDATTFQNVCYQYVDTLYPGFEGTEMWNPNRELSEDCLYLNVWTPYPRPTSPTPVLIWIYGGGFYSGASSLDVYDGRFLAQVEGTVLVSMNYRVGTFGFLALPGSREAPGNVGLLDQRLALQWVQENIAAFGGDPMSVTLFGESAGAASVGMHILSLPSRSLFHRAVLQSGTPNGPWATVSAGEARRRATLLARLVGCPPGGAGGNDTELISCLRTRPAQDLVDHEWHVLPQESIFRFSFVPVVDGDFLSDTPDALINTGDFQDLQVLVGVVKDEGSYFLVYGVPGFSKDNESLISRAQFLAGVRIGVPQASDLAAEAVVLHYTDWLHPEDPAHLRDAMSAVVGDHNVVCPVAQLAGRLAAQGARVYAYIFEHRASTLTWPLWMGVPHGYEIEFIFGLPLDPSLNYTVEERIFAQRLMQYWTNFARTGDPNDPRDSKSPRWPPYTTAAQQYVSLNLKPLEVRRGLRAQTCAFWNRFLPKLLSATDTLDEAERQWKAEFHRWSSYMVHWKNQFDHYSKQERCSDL
Chain of UniProt P0A2T1 (whole entry, looked up): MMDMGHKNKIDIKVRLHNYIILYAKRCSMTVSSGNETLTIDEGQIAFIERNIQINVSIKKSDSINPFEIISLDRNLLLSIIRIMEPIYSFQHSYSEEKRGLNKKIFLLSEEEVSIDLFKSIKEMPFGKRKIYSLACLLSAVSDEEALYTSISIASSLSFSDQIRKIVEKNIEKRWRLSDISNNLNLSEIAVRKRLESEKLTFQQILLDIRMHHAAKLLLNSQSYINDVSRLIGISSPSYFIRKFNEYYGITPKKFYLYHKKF

| Molecule | target | test | system | setting | IC50 |
| --- | --- | --- | --- | --- | --- |
| O=C(Oc1ccccc1)c1cc(O)c(O)c(O)c1 | DNA topoisomerase 4 subunit B, with ParC subunit (parE, Escherichia coli K-12, UniProt P20083) | DNA relaxation, inhibitor, gel-based | Escherichia coli |  | > 100000 nM |
| COC(=O)[C@@H]1C(C=O)=Cc2cc3c(cc2[C@H]1c1cc(OC)c(OC)c(OC)c1)OCO3 | tubulin alpha/beta (Leishmania infantum, UniProt A0A381MCS3+A4HTR0) | tubulin polymerization, inhibitor |  | 37 °C | 2050 nM and 2000 nM |
| COc1ccc(C[C@H](NC(=O)[C@H](C)NC(=O)OC(C)(C)C)C(=O)N[C@@H](CC(C)C)C(=O)C(=O)Nc2ccccc2)cc1 | Proteasome component C5/PSMB5 chymotrypsin-like site | enzyme activity in cells, inhibitor |  |  | 1750 nM |
| C=CC[N+](C)(C)c1ccc(CCC(=O)CCc2ccc([N+](C)(C)CC=C)cc2)cc1 | Ache (Rattus norvegicus, UniProt P37136) | enzyme activity, inhibitor, radiometric | rat, aging, heart homogenate | 15 min, 37 °C | 3000 nM |
| COc1cc(/C=C(\C#N)C(=O)Nc2nnc(C(F)(F)F)s2)ccc1OCc1ccc(C(F)(F)F)cc1C(F)(F)F | PGC-1α/ERRα (human) | reporter gene, antagonist, luciferase reporter |  | 18 h, 3000 cells/well | 3090 nM |
| COc1ccc(-c2nc3cc4nc5ccccc5nc4cc3[nH]2)cc1OC | Genome polyprotein protease | enzyme activity, inhibitor, fluorescence |  | pH 8.5 | 129000 nM |
| CNCCCNC(=O)O[C@H]1CC[C@@]2(C)[C@H](CC[C@@H]3[C@@H]2CC[C@]2(C)[C@@H](c4ccc(=O)oc4)CC[C@]32O)C1 | Atp1a2, with beta-1 subunit (Rattus norvegicus, UniProt P06686) | pump current, inhibitor, two-electrode voltage clamp | Xenopus oocytes expressing β1 | -60 mV | 283 nM |
| CC(C)C[C@H](NC(=O)CN)C(=O)N[C@@H](CCC(=O)O)C(=O)N1CCC[C@H]1C(=O)N[C@@H](CC(C)C)C(=O)N[C@@H](CC(=O)O)C(=O)N[C@@H](CC(C)C)C(=O)N[C@@H](CC(N)=O)C(=O)N[C@H](C(=O)N[C@@H](CO)C(=O)N[C@@H](C)C(=O)NCC(=O)N[C@@H](Cc1ccccc1)C(=O)N1CCC[C@H]1C(=O)N[C@@H](Cc1ccc(O)cc1)C(=O)N[C@H](C(=O)O)C(C)C)[C@@H](C)O | HLA class I histocompatibility antigen, A alpha chain, allele A*02:01 (Homo sapiens, UniProt P04439) | binding, competitive radioligand binding |  | 48 h, 37 °C, added: radiolabelled FLPSDYFPSV 1 nM | < 100 nM |
| CN1CCN(C2Cc3ccccc3Sc3ccc(Cl)cc32)CC1 (racemic) | KCNK18 (Homo sapiens, UniProt Q7Z418) | ion flux, inhibitor |  |  | 7230 nM |
| O=[N+]([O-])c1cccc2[nH]c(CNc3nc(N4CCOCC4)nc4c3ncn4-c3ccsc3)nc12 | Cyclin-dependent kinase 4, with cyclin D1 (CDK4, Homo sapiens, UniProt P11802) | enzyme activity, inhibitor |  |  | 1340 nM |
| CC[C@H](C)[C@H](NC(=O)[C@H](CO)NC(=O)[C@@H](NC(=O)[C@@H](NC(=O)[C@H](CCSC)NC(=O)[C@@H](N)Cc1ccccc1)[C@@H](C)CC)C(C)C)C(=O)N[C@@H](CO)C(=O)N[C@@H](CC(C)C)C(=O)N[C@H](C(=O)O)C(C)C | HLA class I histocompatibility antigen, A alpha chain, allele A*02:03 (Homo sapiens, UniProt P04439) | peptide binding, radiolabelled peptide competition |  | added: radiolabelled standard peptide | 1 nM |
| CCCCCc1cc(OC(=O)c2ccc(O)cc2O)cc(O)c1C(=O)O | topA | enzyme activity, inhibitor |  | range shared with DNA gyrase | 250000 to 500000 nM |
| Cc1sc2nc(-c3cccc(C(F)(F)F)c3)[nH]c(=O)c2c1C | Gag-Pol polyprotein, reverse transcriptase RNase H (gag-pol, Human immunodeficiency virus 1, UniProt P03366) | RNase H activity, inhibitor, fluorescent RNA/DNA hybrid |  |  | > 50000 nM |
| C=C(NC(=O)C(=C)NC(=O)c1csc(C2=N[C@@H]3c4csc(n4)[C@H]4NC(=O)c5csc(n5)[C@H]([C@](C)(O)[C@@H](C)O)NC(=O)[C@H]5CSC(=N5)/C(=C/C)NC(=O)[C@H]([C@@H](C)O)NC(=O)c5csc(n5)[C@]3(CC2)NC(=O)[C@H](C)NC(=O)C(=C)NC(=O)[C@H](C)NC(=O)[C@H]([C@@H](C)CC)N[C@@H]2C=Cc3c([C@H](C)O)cc(nc3[C@H]2O)C(=O)O[C@@H]4C)n1)C(N)=O | PSMB5 | chymotrypsin-like activity, inhibitor | purified 20S proteasome | 15 min preincubation, 37 °C, added: Suc-Leu-Leu-Val-Tyr-AMC substrate | 1020 ± 120 nM |
| NCc1ccc(-c2ncc(OCC3CCNCC3)nc2-c2ccc(-n3ccnn3)cc2)cc1 | Genome polyprotein NS2B-NS3 protease | inhibitor | Zika virus |  | > 10000 nM |
| CCOc1c(S)cnn(-c2ccccc2)c1=O | srtA (Staphylococcus aureus, UniProt Q2FV99) | enzyme activity, inhibitor |  | with preincubation | 35000 nM |
| COc1ccc(CCN2CCN(c3ccccc3OC)CC2)cc1OC | CYP2C19 (Homo sapiens, UniProt P33261) | enzyme activity, inhibitor | human, liver microsomes |  | > 100000 nM |
| Fc1cc(C2=Nn3c(COc4ccc(Cl)cc4Cl)nnc3S/C2=C\c2ccc(-c3ccc(Cl)cc3)o2)c(Cl)cc1Cl | Genome polyprotein NS2B-NS3 protease | enzyme activity, inhibitor | Zika virus | pH 8.0, added: 20 µM Pyr-RTKR-AMC | 2170 nM |

| Molecule | target | test | system | setting | IC50 |
| --- | --- | --- | --- | --- | --- |
| O=C1NC(=S)N(c2ccc(F)cc2)C(=O)/C1=C/c1ccco1 | Cell death protein 3 (ced-3, Caenorhabditis elegans, UniProt P42573) | enzyme activity, inhibitor | purified enzyme | added: 20 µM Ac-DEVD-AMC | 750 nM |
| CCCCCCCCCC(=O)N/N=C/c1ccc(OC(=O)c2cccc(Br)c2)cc1 | topA | enzyme activity, inhibitor |  |  | > 250000 nM |
| CC[C@H](C)[C@H](NC(=O)[C@H](CO)NC(=O)[C@H](Cc1ccc(O)cc1)NC(=O)[C@H](CC(=O)O)NC(=O)[C@H](CO)NC(=O)[C@@H](NC(=O)[C@H](Cc1ccccc1)NC(=O)[C@@H](NC(=O)CNC(=O)[C@@H](N)CCC(=O)O)[C@@H](C)O)[C@@H](C)CC)C(=O)N[C@@H](C)C(=O)N[C@@H](CC(C)C)C(=O)N[C@@H](CC(=O)O)C(=O)N[C@@H](CCCCN)C(=O)N[C@H](C(=O)N[C@@H](CCCNC(=N)N)C(=O)N[C@@H](CCC(N)=O)C(=O)N[C@@H](CCC(N)=O)C(=O)N[C@@H](CCC(=O)O)C(=O)N[C@@H](Cc1ccccc1)C(=O)N[C@H](C(=O)N[C@@H](CC(N)=O)C(=O)N[C@@H](Cc1c[nH]c2ccccc12)C(=O)N[C@@H](CC(C)C)C(=O)N[C@@H](CC(C)C)C(=O)N[C@@H](C)C(=O)N[C@@H](CCC(N)=O)C(=O)N[C@@H](CCCCN)C(N)=O)C(C)C)[C@@H](C)CC | Gastric inhibitory polypeptide receptor (Mus musculus, UniProt Q0P543) | cAMP response, antagonist, CRE-luciferase reporter | BHK | 3 h, 37 °C, added: 50 pM GIP | 543 nM |
| CS(=O)(=O)Nc1ccc(OC[C@@H](O)CNCCc2ccc(Cl)c(Cl)c2)cc1 | Glutamate NMDA receptor; GRIN1/GRIN2B (GRIN1/GRIN2B, Homo sapiens, UniProt Q05586+Q13224) | inhibitor, cell-based |  |  | 53 nM |
| O=C(O)c1ccccc1-c1c2ccc(=O)c([As]3SCCS3)c-2oc2c([As]3SCCS3)c(O)ccc12 | PTPN1 (Homo sapiens, UniProt P18031, P87C) | enzyme activity, inhibitor | crude Escherichia coli lysate | 120 min, 37 °C, added: pNPP | 2800 nM |
| COC(=O)[C@@]1(O)C[C@H]2O[C@]1(C)n1c3ccccc3c3c4c(c5c6ccccc6n2c5c31)C(=O)NC4 | PSMB5 | enzyme activity |  | added: Suc-LLVY-AMC substrate, ATP | 9200 ± 3100 nM |
| Phoxim oxon | Carboxylesterase 1C (Ces1c, Rattus norvegicus, UniProt P10959) | enzyme activity, inhibitor | rat, postnatal day 70, serum | added: p-nitrophenyl valerate | 1.1 nM |
| COc1cccc(NC(=O)C(=O)[C@H](CC(C)C)NC(=O)[C@H](CC(C)C)NC(=O)[C@H](CC(C)C)NC(=O)c2ccc(-c3ccc(C(C)=O)cc3)o2)c1 | Proteasome component C5/PSMB5 chymotrypsin-like site | enzyme activity in cells, inhibitor |  |  | 28.8 nM |
| O=C1NC(=S)NC(=O)C1=Cc1cn(Cc2cccc3ccccc23)c2ccc(Br)cc12 | DNA polymerase eta (POLH, Homo sapiens, UniProt Q9Y253) | enzyme activity, inhibitor, fluorescence |  |  | 8000 nM |
| CC(C)[n+]1cc(-c2ccc3ccccc3n2)cc2ccccc21 | virF (Shigella flexneri, UniProt P0A2T1) | reporter gene expression, inhibitor | Escherichia coli, virB-lacZ reporter strain | 3 h, 37 °C, 6.2% DMSO, added: 1 mM IPTG | 12000 nM |
| NCc1ccc(-c2ncc(OCC3CCNCC3)nc2-c2ccc(N3CCOCC3)cc2)cc1 | Genome polyprotein NS2B-NS3 protease | inhibitor | Zika virus |  | > 10000 nM |
| CN1CCN(CCOc2ccc(Cl)cc2C(=O)Nc2ccc([N+](=O)[O-])cc2Cl)CC1 | Genome polyprotein protease | enzyme activity, inhibitor, FRET |  |  | > 60000 nM |
| O=C(O)c1cc(-c2ccccc2Cl)n[nH]1 | ALPL | enzyme activity, inhibitor, luminescence |  | added: 1 µM CDP-star, 100 mM DEA | 160 ± 8 nM |
| C[C@@H]1C[C@H]2[C@@H]3CCC4=CC(=O)C=C[C@]4(C)[C@@]3(Cl)[C@@H](O)C[C@]2(C)[C@@]1(OC(=O)c1ccco1)C(=O)CCl | ABCC1 (Homo sapiens, UniProt P33527) | efflux, inhibitor | SupT1-Vin overexpressing ABCC1 | added: DiOC2(3) 100 nM | 1400 ± 300 nM |
| CC(C)CN(C)c1nc(N)c(C(=O)N=C(N)N)nc1Cl | Asic1 (Mus musculus, UniProt Q6NXK8) | ASIC current, whole-cell patch clamp | mouse cortical neurons | pH 6.0 | 20800 nM |
| O=C1OC2(c3cc(Cl)c(O)cc3Oc3cc(O)c(Cl)cc32)c2ccccc21 | Dual specificity protein phosphatase 5 (Homo sapiens, UniProt Q16690) | phosphatase activity |  | 0 min, 1 mM DTT, initial velocity, added: pNPP | 238000 ± 6400 nM |
| O=S(=O)(O)Oc1ccc(-c2ccc(Cl)cc2)c(Cl)c1 | SULT2A1 (Homo sapiens, UniProt Q06520) | DHEA sulfation, inhibitor |  | pH 7.4, 37 °C, added: DHEA 1.0 µM | 46000 ± 11000 nM |
| COc1ccc(C)cc1S(=O)(=O)Nc1cccnc1 | ALPL | enzyme activity, inhibitor, luminescence |  | added: CDP-Star 50 µM | 1780 nM |
